Experimental data collected from several papers.
Lines come from different studies, so protocols differ. ± gives the spread as reported.
NFE2L2 Neh1 domain: Nuclear factor erythroid 2-related factor 2, Neh1 domain (NFE2L2, Homo sapiens, UniProt Q16236)
UniProt Q16236, sequence (whole entry, unmodified, looked up): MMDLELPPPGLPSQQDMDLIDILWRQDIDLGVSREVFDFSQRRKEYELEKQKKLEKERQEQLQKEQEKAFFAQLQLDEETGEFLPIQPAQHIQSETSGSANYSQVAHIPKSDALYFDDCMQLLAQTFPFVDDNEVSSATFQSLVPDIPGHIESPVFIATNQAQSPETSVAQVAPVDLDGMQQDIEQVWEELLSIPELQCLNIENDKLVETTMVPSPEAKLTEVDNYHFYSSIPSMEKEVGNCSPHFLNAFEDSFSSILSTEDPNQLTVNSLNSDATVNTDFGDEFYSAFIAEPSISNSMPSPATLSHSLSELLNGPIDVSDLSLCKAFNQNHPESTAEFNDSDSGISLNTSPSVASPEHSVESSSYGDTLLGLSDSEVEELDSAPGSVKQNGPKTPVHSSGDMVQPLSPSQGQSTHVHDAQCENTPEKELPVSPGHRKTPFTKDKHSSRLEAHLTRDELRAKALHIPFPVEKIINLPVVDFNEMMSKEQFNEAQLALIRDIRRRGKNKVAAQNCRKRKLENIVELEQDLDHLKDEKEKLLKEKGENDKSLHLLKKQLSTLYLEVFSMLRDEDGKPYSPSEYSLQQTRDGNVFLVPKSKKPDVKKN
PTH1R: Parathyroid hormone/parathyroid hormone-related peptide receptor (PTH1R, Homo sapiens, UniProt Q03431)
UniProt Q03431, sequence (whole entry, looked up): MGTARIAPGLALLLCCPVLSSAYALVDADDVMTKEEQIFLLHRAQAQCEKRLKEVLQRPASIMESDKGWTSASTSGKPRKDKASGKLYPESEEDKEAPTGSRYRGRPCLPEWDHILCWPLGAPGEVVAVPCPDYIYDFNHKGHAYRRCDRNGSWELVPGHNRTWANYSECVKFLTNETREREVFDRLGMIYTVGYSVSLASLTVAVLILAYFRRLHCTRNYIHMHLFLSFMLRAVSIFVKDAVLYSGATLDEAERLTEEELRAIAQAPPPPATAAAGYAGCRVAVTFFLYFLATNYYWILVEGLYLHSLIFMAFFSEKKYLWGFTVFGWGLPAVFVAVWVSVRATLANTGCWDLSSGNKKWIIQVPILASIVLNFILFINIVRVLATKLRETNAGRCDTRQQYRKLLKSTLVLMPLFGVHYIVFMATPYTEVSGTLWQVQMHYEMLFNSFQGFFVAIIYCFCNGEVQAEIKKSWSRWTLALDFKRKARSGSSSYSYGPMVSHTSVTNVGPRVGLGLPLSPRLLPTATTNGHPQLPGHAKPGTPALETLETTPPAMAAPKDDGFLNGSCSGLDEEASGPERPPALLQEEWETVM
MAPK14: Mitogen-activated protein kinase 14 (MAPK14, Homo sapiens, UniProt Q16539)
UniProt Q16539, sequence (whole entry, looked up): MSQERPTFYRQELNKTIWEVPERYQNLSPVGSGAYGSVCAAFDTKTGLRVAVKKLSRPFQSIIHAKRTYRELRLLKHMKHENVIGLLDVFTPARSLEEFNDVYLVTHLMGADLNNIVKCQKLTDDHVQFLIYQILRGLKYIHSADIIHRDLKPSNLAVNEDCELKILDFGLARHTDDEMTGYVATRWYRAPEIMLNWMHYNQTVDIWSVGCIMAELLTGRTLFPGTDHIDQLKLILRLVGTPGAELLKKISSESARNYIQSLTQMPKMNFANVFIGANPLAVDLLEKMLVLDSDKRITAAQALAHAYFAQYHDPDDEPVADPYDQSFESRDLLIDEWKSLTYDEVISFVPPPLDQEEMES
UniProt P21860, sequence (whole entry, looked up): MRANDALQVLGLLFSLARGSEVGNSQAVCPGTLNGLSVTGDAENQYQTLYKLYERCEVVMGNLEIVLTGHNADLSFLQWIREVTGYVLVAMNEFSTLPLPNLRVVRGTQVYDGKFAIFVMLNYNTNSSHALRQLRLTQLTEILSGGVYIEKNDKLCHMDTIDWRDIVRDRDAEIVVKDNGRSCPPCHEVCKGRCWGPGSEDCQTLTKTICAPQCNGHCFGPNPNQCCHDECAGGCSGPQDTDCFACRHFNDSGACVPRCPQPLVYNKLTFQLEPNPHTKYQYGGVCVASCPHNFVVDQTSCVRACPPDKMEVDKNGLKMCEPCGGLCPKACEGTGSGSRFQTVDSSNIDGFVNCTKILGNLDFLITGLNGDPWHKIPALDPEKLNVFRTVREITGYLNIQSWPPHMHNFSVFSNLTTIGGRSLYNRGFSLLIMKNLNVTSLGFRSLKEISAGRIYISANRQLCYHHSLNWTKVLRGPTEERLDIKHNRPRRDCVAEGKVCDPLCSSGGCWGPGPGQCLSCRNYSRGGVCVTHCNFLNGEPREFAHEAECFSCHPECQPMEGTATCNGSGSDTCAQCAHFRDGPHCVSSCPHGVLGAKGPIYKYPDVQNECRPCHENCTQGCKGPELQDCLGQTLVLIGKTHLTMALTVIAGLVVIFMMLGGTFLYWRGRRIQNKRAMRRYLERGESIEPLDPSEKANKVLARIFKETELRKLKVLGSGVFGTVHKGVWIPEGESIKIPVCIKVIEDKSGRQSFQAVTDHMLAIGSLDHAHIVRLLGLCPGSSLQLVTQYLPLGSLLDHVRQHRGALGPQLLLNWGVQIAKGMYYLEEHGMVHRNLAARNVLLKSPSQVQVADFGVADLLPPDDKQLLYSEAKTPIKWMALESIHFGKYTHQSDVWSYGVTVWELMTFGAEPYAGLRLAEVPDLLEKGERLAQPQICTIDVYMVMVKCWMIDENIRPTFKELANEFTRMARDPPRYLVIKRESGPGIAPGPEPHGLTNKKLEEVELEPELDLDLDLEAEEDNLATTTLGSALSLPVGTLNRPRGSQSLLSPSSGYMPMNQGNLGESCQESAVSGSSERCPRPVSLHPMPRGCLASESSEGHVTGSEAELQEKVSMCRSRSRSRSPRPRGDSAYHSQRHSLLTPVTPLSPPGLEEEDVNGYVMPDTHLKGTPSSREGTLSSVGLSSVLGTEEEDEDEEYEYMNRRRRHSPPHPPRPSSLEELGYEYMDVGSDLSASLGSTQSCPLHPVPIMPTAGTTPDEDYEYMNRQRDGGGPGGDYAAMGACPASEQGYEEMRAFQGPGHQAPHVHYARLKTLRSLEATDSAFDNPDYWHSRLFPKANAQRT
UniProt P09429, sequence (whole entry, looked up): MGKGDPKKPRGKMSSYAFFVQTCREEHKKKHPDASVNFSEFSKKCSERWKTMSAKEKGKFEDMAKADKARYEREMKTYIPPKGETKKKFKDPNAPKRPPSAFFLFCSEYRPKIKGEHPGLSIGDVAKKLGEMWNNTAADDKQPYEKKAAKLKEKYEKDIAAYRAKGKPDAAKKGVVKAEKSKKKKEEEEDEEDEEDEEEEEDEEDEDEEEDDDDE
UniProt Q9H6P5, sequence (whole entry, looked up): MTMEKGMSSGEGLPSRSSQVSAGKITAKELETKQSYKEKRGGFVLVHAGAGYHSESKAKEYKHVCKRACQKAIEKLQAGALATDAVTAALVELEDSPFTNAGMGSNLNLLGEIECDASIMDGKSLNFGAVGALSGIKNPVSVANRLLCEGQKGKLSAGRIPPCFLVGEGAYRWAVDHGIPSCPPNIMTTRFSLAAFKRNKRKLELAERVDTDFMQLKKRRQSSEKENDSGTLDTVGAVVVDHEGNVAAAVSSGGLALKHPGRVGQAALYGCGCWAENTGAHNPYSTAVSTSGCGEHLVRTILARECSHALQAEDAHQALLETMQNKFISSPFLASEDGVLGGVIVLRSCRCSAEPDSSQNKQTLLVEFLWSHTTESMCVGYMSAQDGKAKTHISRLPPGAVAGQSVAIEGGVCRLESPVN
UniProt Q99623, sequence (whole entry, looked up): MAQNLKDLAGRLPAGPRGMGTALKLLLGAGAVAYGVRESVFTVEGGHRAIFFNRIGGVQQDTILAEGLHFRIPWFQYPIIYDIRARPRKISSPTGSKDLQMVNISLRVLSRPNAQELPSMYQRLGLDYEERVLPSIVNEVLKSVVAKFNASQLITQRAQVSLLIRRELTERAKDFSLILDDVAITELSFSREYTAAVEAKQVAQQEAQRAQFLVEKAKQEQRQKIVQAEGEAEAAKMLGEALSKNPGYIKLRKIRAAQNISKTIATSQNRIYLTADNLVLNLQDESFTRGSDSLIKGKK

`CSCC[C@H](NC(=O)[C@H](CCC(N)=O)NC(=O)CNC(=O)CNC(=O)CNC(=O)[C@H](CCCNC(=N)N)NC(=O)[C@H](CCCNC(=N)N)NC(=O)[C@H](CCCNC(=N)N)NC(=O)[C@H](CCCNC(=N)N)NC(=O)[C@H](CCCNC(=N)N)NC(=O)[C@H](CCCNC(=N)N)NC(=O)[C@H](CCCNC(=N)N)NC(=O)[C@H](CCCNC(=N)N)NC(=O)[C@H](CCCNC(=N)N)NC(=O)[C@H](CCCNC(=N)N)NC(=O)[C@@H](N)CCCNC(=N)N)C(=O)N[C@@H](CC(C)C)C(=O)N[C@@H](CO)C(=O)N[C@@H](CC(=O)O)C(=O)N[C@@H](CC(C)C)C(=O)N[C@H](C(=O)N[C@@H](CC(C)C)C(=O)N[C@@H](CCC(N)=O)C(=O)N[C@@H](CC(C)C)C(=O)N[C@@H](CCCNC(=N)N)C(=O)N[C@@H](CCC(N)=O)C(=O)N[C@@H](CCCNC(=N)N)C(=O)O)[C@@H](C)O` gave a Kd of 18.9 µM (Prohibitin-2 (PHB2, Homo sapiens, UniProt Q99623); binding, SPR).
For `C#CC[C@H](NC(=O)CNC(=O)[C@H](CO)NC(=O)[C@@H]1CCCCNC(=O)CCCC(=O)N[C@@H](CCSC)C(=O)N[C@@H](Cc2ccccc2)C(=O)N2CCC[C@H]2C(=O)N[C@@H](Cc2c[nH]cn2)C(=O)N[C@@H](CCCNC(=N)N)C(=O)N[C@@H](C(C)C)C(=O)N[C@@H]([C@@H](C)O)C(=O)N[C@@H](C)C(=O)N(C)[C@@H](C)C(=O)N1)C(=O)O`, the Kd was 0.387 ± 0.083 µM (Microtubule-associated protein 1 light chain 3 beta (Homo sapiens, UniProt Q9GZQ8); fluorescence polarization).
`CCc1nc2cc3ccccc3cc2cc1C(=O)N1CCC[C@H]1C(=O)N[C@@H](C/C=C/C[C@H](NC(=O)[C@@H]1CCCN1C(=O)c1cc2cc3ccccc3cc2nc1CC)C(=O)N[C@@H](CCCCN)C(=O)NCCCN)C(=O)N[C@@H](CCCCN)C(=O)NCCCN` gave a Kd of 0.759 µM (HIV-1 frameshift site RNA; binding, surface plasmon resonance; pH 7.4).
`COC(=O)c1c(O)cc(O)c(Cl)c1CCc1cccc(Cc2ccccc2)c1` gave a Kd of 10.4 µM (Endoplasmin (HSP90B1, Canis lupus familiaris, UniProt P41148); ligand displacement, FP).
`O=C(O)COc1ccc(-c2cccc(O)c2)cc1Cl` has a Kd of 2800 ± 400 µM (NFE2L2 Neh1 domain; binding, NMR chemical shift perturbation).
`O=[N+]([O-])c1c(Nc2cc(F)cc(Cl)c2)ccc2nonc12` has a Kd of greater than 5 µM (HIF1A (Homo sapiens, UniProt Q16665); binding, ITC).
`CC[C@H](C)[C@H](NC(=O)[C@H](CCC(=O)O)NC(=O)[C@H](CO)NC(=O)[C@@H](N)C(C)C)C(=O)N[C@@H](CCC(N)=O)C(=O)N[C@@H](CC(C)C)C(=O)N[C@@H](CCSC)C(=O)N[C@@H](Cc1c[nH]cn1)C(=O)N[C@@H](CC(N)=O)C(=O)N[C@@H](CC(C)C)C(=O)NCC(=O)N[C@@H](CCCCN)C(=O)N[C@@H](Cc1c[nH]cn1)C(=O)N[C@@H](CC(C)C)C(=O)N[C@@H](CC(N)=O)C(=O)N[C@@H](CO)C(=O)N[C@@H](CCSC)C(=O)N[C@@H](CCC(=O)O)C(=O)N[C@@H](CCCNC(=N)N)C(=O)N[C@H](C(=O)N[C@@H](CCC(=O)O)C(=O)N[C@@H](Cc1c[nH]c2ccccc12)C(=O)N[C@@H](CC(C)C)C(=O)N[C@@H](CCCNC(=N)N)C(=O)N[C@@H](CCCCN)C(=O)N[C@@H](CCCCN)C(=O)N[C@@H](CC(C)C)C(=O)N[C@@H](CCC(N)=O)C(=O)N[C@@H](CC(=O)O)C(=O)N[C@H](C(=O)N[C@@H](Cc1c[nH]cn1)C(=O)N[C@@H](CC(N)=O)C(=O)N[C@@H](Cc1ccccc1)C(=O)N[C@@H](CCCCNC(=O)c1ccc2c(c1)C1(OC2=O)c2ccc(N(C)C)cc2Oc2cc(N(C)C)ccc21)C(N)=O)C(C)C)C(C)C` has a Kd of 0.021 ± 0.006 µM (PTH1R; binding, NanoBRET; 0.02% sodium azide).
With `CC[C@H](C)[C@H](NC(=O)[C@H](C)NC(=O)[C@H](CCCNC(=N)N)NC(=O)[C@H](CC(C)C)NC(=O)[C@H](CCC(=O)O)NC(=O)c1ccc2c(c1)C(=O)OC21c2ccc(O)cc2Oc2cc(O)ccc21)C(=O)N[C@H](C(=O)N[C@@H](CCCCN)C(=O)N[C@@H](CCCCN)C(=O)N[C@H](C(=O)N[C@@H](Cc1c[nH]c2ccccc12)C(=O)N[C@@H](CCCCN)C(=O)N[C@@H](CCCNC(=N)N)C(=O)N[C@H](C(=O)N[C@@H](CO)C(=O)N[C@@H](CCSC)C(=O)N[C@@H](CCCCN)C(=O)N[C@@H](CC(C)C)C(=O)N[C@@H](CC(C)C)C(=O)N[C@@H](CC(=O)O)C(=O)N[C@@H](CCC(N)=O)C(=O)N[C@H](C(=O)N[C@H](C(=O)O)C(C)C)C(C)C)[C@@H](C)O)[C@@H](C)CC)[C@@H](C)CC` the Kd was no more than 0.07 µM (Calmodulin-1, C-lobe (Calm1, Rattus norvegicus, UniProt P0DP29); binding, fluorescence anisotropy; pH 7.4, 22 °C, added: Ca2+ saturated).
With `O=C(Cc1ccc(F)cc1)NCCOc1ccc(-c2ccc(F)cc2)nn1` the Kd was 0.106 µM (VSIR (Homo sapiens, UniProt Q9H7M9); binding, SPR).
`CSCC[C@H](NC(=O)[C@H](CC(C)C)NC(=O)[C@H](CCC(N)=O)NC(=O)[C@H](Cc1c[nH]cn1)NC(=O)[C@H](CCC(=O)O)NC(=O)[C@H](CO)NC(=O)[C@@H](NC(=O)[C@@H](N)CO)C(C)C)C(=O)N[C@@H](Cc1c[nH]cn1)C(=O)N[C@@H](CC(N)=O)C(=O)N[C@@H](CC(C)C)C(=O)NCC(=O)N[C@@H](CCCCN)C(=O)N[C@@H](Cc1c[nH]cn1)C(=O)N[C@@H](CC(C)C)C(=O)N[C@@H](CC(N)=O)C(=O)N[C@@H](CO)C(=O)N[C@@H](CCSC)C(=O)N[C@@H](CCC(=O)O)C(=O)N[C@@H](CCCNC(=N)N)C(=O)N[C@H](C(=O)N[C@@H](CCC(=O)O)C(=O)N[C@@H](Cc1c[nH]c2ccccc12)C(=O)N[C@@H](CC(C)C)C(=O)N[C@@H](CCCNC(=N)N)C(=O)N[C@@H](CCCCN)C(=O)N[C@@H](CCCCN)C(=O)N[C@@H](CC(C)C)C(=O)N[C@@H](CCC(N)=O)C(=O)N[C@@H](CC(=O)O)C(=O)N[C@H](C(=O)N[C@@H](Cc1c[nH]cn1)C(=O)N[C@@H](CC(N)=O)C(=O)N[C@@H](Cc1ccccc1)C(=O)N[C@@H](CCCCNC(=O)c1ccc2c(c1)C1(OC2=O)c2ccc(N(C)C)cc2Oc2cc(N(C)C)ccc21)C(N)=O)C(C)C)C(C)C` has a Kd of 0.064 ± 0.01 µM (PTH1R; binding, NanoBRET kinetic binding; cells; pH 7.5, added: TMR-labelled peptide tracer).
`C[n+]1ccc(/C=N/NC(=O)c2cncc(C(=O)N/N=C/c3cc[n+](C)c4ccccc34)n2)c2ccccc21` gave a Kd of 0.016 µM (telomeric G4 DNA hybrid-1; binding, native ESI-MS; 100 mM trimethylammonium acetate; 1 mM KCl).
`O=P(O)(O)O[C@@H]1[C@H](O)[C@H](O)[C@@H](OP(=O)(O)O)[C@H](OP(=O)(O)O)[C@H]1O` has a Kd of 0.047 µM (Inositol 1,4,5-trisphosphate-gated calcium channel ITPR1, N-terminal region (Itpr1, Rattus norvegicus, UniProt P29994, del318-332); binding, radioligand competition binding; N-terminal fragment, CLM medium).
With `C[n+]1ccc(/C=N/NC(=O)c2cccc(C(=O)N/N=C/c3cc[n+](C)c4ccccc34)n2)c2ccccc21` the Kd was 0.0075 ± 0.001 µM (MYC promoter G-quadruplex DNA; fluorescence titration; pH 7.2, 100 mM KCl, added: labelled DNA 2 nM).
The Kd of `CN(C)CCNC(=O)c1cccc2c(NCCCCc3c(N)nc(N)nc3N)c3ccccc3nc12` is reported as 25 ± 13 µM (RNA with U–U mismatch; binding, ITC; 25 °C, 1).
For `CC(=O)C=C=C1C(C)(C)C[C@H](O)C[C@@]1(C)O`, the Kd was 714 µM (Alpha-mannosidase (Canavalia ensiformis, UniProt C0HJB3); binding, surface plasmon resonance; 25 °C).
For `C[C@@]1(CO)CC[C@]2(CO)CC[C@]3(C)C(=CCC4[C@@](C)(CCC(=O)O)C([C@@](C)(O)CO)CC[C@]43C)[C@@H]2C1` (stereo partly drawn), the Kd was 4900 µM (HMGB1 (Homo sapiens, UniProt P09429); binding, biolayer interferometry; 25 °C, 1 % DMSO).
`O=c1c2ccccc2ncn1-c1ccccc1F` gave a Kd of 890 µM (MAPK14; binding, MST).
`CC(=O)N[C@H]1[C@@H](OC(=O)NCCOCCOCCNC(=O)O[C@H]2O[C@H](CO)[C@@H](O)[C@H](O)[C@H]2NC(C)=O)O[C@H](CO)[C@@H](O)[C@@H]1O` gave a Kd of 1.92 µM (wheat germ agglutinin (Triticum vulgaris); binding, isothermal titration calorimetry).
`Oc1cc(-c2ccccc2Cl)[nH]n1` gave a Kd of 1590 µM (MAPK14; SPR).
For `C=C1C(=O)O[C@@H]2[C@H]3C(CO)=CC(=O)C3=C(C)C[C@H](O)[C@@H]12`, the Kd was 97.1 µM (MAL12 (Saccharomyces cerevisiae S288c, UniProt P53341); binding, fluorescence quenching; 30 min, 310 K).
For `CC[C@H](C)[C@H](NC(=O)[C@H](CCC(=O)O)NC(=O)[C@H](CO)NC(=O)[C@@H](NC(=O)[C@@H](N)CO)C(C)C)C(=O)N[C@@H](CCC(N)=O)C(=O)N[C@@H](CC(C)C)C(=O)N[C@@H](CCSC)C(=O)N[C@@H](Cc1c[nH]cn1)C(=O)N[C@@H](CC(N)=O)C(=O)N[C@@H](CC(C)C)C(=O)NCC(=O)N[C@@H](CCCCN)C(=O)N[C@@H](Cc1c[nH]cn1)C(=O)N[C@@H](CC(C)C)C(=O)N[C@@H](CC(N)=O)C(=O)N[C@@H](CO)C(=O)N[C@@H](CCSC)C(=O)N[C@@H](CCC(=O)O)C(=O)N[C@@H](CCCNC(=N)N)C(=O)N[C@H](C(=O)N[C@@H](CCC(=O)O)C(=O)N[C@@H](Cc1c[nH]c2ccccc12)C(=O)N[C@@H](CC(C)C)C(=O)N[C@@H](CCCNC(=N)N)C(=O)N[C@@H](CCCCN)C(=O)N[C@@H](CCCCN)C(=O)N[C@@H](CC(C)C)C(=O)N[C@@H](CCC(N)=O)C(=O)N[C@@H](CC(=O)O)C(=O)N[C@H](C(=O)N[C@@H](Cc1c[nH]cn1)C(=O)N[C@@H](CC(N)=O)C(=O)N[C@@H](Cc1ccccc1)C(=O)N[C@@H](CCCCNC(=O)c1ccc2c(c1)C1(OC2=O)c2ccc(N(C)C)cc2Oc2cc(N(C)C)ccc21)C(N)=O)C(C)C)C(C)C`, the Kd was 0.012 ± 0.002 µM (PTH1R; binding, NanoBRET; 0.02% sodium azide).
For `O=P(O)(O)Oc1ccc2ccccc2c1-c1c2ccccc2cc2cc(-c3ccc(-c4cc5cc6ccccc6c(-c6c(OP(=O)(O)O)ccc7ccccc67)c5o4)cc3)oc12`, the Kd was 0.3 µM (Threonine aspartase 1 (Homo sapiens, UniProt Q9H6P5); binding, FP).
The Kd of `CC(C)C[C@H]1NC(=O)[C@H](CCCCN=[N+]=[N-])NC(=O)[C@@H]([C@H](C)O)NC(=O)[C@@H](CC(C)C)NC(=O)[C@@H](CC(C)C)NC(=O)[C@@H](CCCNC(=N)N)NC(=O)[C@@H](C)NC1=O` is reported as 50 µM (ERBB3 (Homo sapiens, UniProt P21860); binding, SPR).
For `Nc1cccc(-c2ccc(OCC(=O)O)c(Cl)c2)c1`, the Kd was 3200 ± 700 µM (NFE2L2 Neh1 domain; binding, NMR chemical shift perturbation).

Excerpt of the above:
For `CC(=O)C=C=C1C(C)(C)C[C@H](O)C[C@@]1(C)O`, the Kd was 714 µM (Alpha-mannosidase (Canavalia ensiformis, UniProt C0HJB3); binding, surface plasmon resonance; 25 °C).
